Results gathered from unrelated publications.
Compare with care: the assays were run in different laboratories. ± gives the spread as reported.
FPR1 N192K: fMet-Leu-Phe receptor (FPR1, Homo sapiens, UniProt P21462, N192K)
OPRM1: Mu-type opioid receptor (OPRM1, Homo sapiens, UniProt P35372)
OPRD1: Delta-type opioid receptor (OPRD1, Homo sapiens, UniProt P41143)
OPRL1: Nociceptin receptor (OPRL1, Homo sapiens, UniProt P41146)

The chains behind the UniProt entries cited, without tags or fusion partners. Residues count along the entry.
UniProt P21462, whole entry N192K: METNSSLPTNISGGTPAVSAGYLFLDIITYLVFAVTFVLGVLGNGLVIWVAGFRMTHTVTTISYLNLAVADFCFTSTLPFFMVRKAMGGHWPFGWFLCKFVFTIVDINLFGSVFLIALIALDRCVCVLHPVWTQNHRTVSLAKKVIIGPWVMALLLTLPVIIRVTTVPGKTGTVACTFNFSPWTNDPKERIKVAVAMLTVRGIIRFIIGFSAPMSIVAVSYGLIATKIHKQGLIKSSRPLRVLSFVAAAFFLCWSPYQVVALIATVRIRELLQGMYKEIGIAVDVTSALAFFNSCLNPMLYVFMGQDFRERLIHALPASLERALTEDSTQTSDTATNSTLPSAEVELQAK
UniProt P35372, whole entry: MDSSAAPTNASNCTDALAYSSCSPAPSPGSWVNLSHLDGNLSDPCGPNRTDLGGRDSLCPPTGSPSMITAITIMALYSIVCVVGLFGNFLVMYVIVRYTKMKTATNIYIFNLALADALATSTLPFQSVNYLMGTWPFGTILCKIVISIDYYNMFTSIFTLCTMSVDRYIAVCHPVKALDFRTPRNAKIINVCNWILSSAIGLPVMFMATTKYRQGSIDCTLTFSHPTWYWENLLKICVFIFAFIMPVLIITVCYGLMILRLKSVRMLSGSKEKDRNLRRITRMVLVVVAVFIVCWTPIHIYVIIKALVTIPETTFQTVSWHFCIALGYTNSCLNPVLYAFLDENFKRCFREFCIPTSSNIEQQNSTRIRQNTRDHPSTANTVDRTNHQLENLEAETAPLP
UniProt P41143, whole entry: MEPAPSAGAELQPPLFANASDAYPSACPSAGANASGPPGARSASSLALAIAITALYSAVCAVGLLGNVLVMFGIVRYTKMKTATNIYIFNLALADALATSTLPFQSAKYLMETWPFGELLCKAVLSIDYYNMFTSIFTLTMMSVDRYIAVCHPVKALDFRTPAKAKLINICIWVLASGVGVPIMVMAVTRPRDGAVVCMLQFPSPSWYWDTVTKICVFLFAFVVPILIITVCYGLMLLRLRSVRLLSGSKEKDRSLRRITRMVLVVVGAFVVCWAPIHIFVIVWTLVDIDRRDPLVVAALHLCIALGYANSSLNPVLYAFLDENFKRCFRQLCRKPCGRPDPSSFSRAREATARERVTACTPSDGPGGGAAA
UniProt P41146, whole entry: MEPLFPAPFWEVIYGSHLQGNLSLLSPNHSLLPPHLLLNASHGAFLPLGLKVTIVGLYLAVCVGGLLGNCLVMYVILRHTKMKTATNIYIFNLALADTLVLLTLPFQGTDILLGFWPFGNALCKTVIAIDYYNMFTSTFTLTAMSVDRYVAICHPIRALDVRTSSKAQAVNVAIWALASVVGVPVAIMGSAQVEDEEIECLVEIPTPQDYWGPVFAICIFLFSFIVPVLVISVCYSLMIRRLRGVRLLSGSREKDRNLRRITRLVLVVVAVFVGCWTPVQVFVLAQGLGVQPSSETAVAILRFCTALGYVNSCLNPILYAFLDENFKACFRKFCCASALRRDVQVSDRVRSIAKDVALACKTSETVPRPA
UniProt Q9NR20, whole entry: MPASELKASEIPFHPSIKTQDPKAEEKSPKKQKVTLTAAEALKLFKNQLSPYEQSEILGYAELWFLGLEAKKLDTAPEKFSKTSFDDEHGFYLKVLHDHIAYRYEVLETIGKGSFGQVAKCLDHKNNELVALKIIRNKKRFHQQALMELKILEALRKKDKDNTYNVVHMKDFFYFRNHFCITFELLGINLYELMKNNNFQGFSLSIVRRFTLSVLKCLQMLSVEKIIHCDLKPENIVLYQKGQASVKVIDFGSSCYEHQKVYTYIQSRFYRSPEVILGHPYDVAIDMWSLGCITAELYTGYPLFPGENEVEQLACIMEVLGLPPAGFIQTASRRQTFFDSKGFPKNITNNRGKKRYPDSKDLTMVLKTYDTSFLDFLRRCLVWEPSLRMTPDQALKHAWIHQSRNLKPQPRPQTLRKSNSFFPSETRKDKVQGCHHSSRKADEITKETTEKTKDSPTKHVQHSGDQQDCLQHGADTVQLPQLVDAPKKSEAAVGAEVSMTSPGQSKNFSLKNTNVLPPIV
UniProt P36544, 23-502 limits assumed: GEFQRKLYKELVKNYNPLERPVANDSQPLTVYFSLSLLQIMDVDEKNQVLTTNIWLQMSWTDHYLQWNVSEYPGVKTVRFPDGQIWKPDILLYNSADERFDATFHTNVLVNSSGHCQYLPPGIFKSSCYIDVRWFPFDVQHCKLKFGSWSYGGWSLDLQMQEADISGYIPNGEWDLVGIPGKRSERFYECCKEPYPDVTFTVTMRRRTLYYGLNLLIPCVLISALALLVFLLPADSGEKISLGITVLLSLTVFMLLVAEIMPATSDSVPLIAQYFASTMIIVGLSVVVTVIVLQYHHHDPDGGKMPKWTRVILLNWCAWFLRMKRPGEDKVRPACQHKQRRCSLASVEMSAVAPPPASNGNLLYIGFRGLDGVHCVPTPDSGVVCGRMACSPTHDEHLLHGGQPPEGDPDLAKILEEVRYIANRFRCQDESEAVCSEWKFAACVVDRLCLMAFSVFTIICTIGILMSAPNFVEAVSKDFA
UniProt P71968, 1-258: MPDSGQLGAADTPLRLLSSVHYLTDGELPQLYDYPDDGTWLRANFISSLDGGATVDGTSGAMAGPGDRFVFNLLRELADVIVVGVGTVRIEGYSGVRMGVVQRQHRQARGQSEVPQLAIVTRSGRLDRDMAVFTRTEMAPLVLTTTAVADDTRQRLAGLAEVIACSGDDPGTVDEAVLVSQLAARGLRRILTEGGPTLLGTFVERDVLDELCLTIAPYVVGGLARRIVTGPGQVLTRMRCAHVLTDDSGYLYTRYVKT
UniProt P49841, whole entry: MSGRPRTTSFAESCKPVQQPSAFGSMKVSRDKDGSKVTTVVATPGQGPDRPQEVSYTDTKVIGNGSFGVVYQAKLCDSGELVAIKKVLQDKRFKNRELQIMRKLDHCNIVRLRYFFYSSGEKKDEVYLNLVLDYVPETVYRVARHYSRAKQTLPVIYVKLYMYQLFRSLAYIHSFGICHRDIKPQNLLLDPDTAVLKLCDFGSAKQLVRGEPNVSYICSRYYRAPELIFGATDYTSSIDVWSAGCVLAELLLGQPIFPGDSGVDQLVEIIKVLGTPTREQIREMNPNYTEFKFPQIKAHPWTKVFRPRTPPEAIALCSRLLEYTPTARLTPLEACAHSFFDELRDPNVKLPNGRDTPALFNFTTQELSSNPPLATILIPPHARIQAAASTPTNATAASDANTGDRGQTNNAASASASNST
UniProt P32300, whole entry: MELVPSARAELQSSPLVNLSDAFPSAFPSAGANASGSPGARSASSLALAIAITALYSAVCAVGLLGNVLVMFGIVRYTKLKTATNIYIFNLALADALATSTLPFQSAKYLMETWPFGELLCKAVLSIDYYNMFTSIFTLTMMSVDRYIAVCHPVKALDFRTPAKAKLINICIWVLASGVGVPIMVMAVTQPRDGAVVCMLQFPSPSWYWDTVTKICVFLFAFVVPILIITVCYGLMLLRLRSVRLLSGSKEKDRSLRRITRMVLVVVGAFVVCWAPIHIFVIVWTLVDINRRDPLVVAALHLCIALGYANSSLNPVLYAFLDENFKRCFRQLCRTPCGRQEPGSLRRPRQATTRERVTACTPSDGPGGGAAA
UniProt Q9BVJ7, whole entry: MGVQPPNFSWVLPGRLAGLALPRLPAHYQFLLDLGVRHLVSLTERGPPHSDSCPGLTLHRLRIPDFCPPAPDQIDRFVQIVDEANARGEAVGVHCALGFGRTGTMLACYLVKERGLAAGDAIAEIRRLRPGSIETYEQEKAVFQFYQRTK
UniProt A0ACM8Q262, 1-400: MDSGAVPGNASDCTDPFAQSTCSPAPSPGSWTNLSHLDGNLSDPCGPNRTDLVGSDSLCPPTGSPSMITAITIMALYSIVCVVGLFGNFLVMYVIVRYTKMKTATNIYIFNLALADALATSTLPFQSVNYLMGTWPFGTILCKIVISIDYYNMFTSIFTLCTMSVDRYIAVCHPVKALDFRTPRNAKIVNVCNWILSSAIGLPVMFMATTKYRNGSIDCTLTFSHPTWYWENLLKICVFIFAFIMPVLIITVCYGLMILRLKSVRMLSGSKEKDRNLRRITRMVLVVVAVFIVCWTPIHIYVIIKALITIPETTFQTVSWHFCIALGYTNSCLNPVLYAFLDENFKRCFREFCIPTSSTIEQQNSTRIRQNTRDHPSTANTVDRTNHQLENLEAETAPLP
UniProt P22303, whole entry, looked up: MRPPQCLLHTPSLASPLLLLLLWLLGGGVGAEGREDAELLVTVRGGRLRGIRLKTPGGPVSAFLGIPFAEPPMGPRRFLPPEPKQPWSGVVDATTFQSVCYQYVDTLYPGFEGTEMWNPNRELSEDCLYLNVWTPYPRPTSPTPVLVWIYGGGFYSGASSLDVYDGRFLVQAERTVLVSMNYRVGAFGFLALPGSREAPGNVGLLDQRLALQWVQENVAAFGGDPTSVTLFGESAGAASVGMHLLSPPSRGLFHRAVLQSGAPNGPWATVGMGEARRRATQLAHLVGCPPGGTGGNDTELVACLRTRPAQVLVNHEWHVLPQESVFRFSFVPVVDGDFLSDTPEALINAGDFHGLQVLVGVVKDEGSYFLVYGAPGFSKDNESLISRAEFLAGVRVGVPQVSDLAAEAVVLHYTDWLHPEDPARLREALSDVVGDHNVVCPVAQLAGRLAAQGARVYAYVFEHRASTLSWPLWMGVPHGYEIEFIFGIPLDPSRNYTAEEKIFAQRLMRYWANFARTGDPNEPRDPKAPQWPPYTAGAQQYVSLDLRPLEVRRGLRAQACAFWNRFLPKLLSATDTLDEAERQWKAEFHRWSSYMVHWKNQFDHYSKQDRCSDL
UniProt A0A4X1VEU5, 29-602 limits assumed: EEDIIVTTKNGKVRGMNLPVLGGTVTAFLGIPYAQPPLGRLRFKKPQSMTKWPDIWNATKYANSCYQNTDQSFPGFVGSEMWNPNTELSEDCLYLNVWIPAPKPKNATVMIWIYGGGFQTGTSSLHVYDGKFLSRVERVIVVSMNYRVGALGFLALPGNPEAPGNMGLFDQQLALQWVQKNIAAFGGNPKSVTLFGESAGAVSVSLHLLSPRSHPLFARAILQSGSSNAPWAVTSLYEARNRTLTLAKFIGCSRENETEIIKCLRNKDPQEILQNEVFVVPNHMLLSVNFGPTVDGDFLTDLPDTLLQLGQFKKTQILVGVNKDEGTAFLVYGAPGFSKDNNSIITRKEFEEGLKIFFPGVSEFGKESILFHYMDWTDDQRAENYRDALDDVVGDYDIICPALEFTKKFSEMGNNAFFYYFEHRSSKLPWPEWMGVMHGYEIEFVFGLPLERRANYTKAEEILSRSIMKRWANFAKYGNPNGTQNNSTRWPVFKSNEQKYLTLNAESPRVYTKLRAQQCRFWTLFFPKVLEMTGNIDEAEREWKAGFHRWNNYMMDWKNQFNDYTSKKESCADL
UniProt P33533, whole entry: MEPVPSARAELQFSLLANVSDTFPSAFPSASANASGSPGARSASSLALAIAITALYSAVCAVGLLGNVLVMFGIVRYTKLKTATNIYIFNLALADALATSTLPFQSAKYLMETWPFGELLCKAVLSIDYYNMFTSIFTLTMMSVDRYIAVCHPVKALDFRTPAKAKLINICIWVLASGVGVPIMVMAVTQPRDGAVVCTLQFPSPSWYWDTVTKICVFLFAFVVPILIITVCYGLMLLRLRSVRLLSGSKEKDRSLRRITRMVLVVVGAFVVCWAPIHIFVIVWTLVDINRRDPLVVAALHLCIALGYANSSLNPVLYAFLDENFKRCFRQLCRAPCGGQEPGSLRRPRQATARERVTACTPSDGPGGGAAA
UniProt P21917, whole entry: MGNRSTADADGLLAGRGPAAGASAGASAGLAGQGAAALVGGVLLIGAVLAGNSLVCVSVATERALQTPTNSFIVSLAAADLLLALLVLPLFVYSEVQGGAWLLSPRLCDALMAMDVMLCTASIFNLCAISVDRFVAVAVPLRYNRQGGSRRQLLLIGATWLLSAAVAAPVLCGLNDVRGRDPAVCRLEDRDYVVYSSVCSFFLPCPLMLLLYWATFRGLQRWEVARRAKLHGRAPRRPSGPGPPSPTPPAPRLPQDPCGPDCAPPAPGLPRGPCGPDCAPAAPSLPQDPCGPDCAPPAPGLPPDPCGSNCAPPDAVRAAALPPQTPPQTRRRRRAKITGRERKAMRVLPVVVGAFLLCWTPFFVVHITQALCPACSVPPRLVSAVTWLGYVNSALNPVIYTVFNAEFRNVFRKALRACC

Molecule | target | test | test system | conditions | how to read | measurement | result
CC[C@H](C)[C@H](NC(=O)[C@H](Cc1c[nH]c2ccccc12)NC(=O)[C@H](CCC(N)=O)NC(=O)[C@H](CCCNC(=N)N)NC(=O)[C@H](Cc1c[nH]c2ccccc12)NC(=O)CNC(=O)[C@@H](NC(=O)[C@H](Cc1c[nH]c2ccccc12)NC(=O)[C@H](Cc1c[nH]c2ccccc12)NC(=O)[C@H](CC(N)=O)NC(=O)[C@H](CC(=O)O)NC(=O)[C@@H](N)CC(N)=O)[C@@H](C)O)C(=O)O | FPR1 N192K | binding, competition binding |  | 4 °C, together with: formyl-Nle-Leu-Phe-Nle-Tyr-Lys-FITC 0.3 nM |  | Ki | 1.2 ± 0.09 µM
CCN1CCN(Cc2ccc(NC(=O)c3ccc(C)c(/C=C/c4cnc5[nH]ccc5c4OC)c3)cc2C(F)(F)F)CC1 | Dual specificity tyrosine-phosphorylation-regulated kinase 4 (DYRK4, Homo sapiens, UniProt Q9NR20) | inhibitor, cell-based kinome screen |  | 5 µM | reference: vehicle | log2 fold change | 0.294 log2
O=C(C1CC1)N1CC2CC(C1)N2 | Neuronal acetylcholine receptor subunit alpha-7 (CHRNA7, Homo sapiens, UniProt P36544) | binding | membranes | together with: [3H]epibatidine |  | Ki | 0.62 ± 0.095 µM
CO[C@]12CC[C@@]3(C[C@@H]1[C@](C)(O)c1ccccc1)[C@H]1Cc4ccc(O)c5c4[C@@]3(CCN1CC1CC1)[C@H]2O5 | OPRM1 | binding, radioligand displacement | CHO | together with: [3H]DAMGO |  | Ki | 0.00071 ± 0.00017 µM
CO[C@]12CC[C@@]3(C[C@@H]1[C@@](C)(O)c1ccc(C(C)(C)C)cc1)[C@H]1Cc4ccc(O)c5c4[C@@]3(CCN1CC1CC1)[C@H]2O5 | OPRD1 | radioligand binding | CHO | together with: [3H]Cl-DPDPE |  | Ki | 0.00303 ± 0.00061 µM
CC[C@](O)([C@H]1C[C@@]23CC[C@]1(OC)[C@@H]1Oc4c(O)ccc5c4[C@@]12CCN(CC1CC1)[C@@H]3C5)C(C)(C)C | OPRD1 | binding, radioligand displacement | CHO | together with: [3H]DPDPE |  | Ki | 0.00086 ± 2e-05 µM
CO[C@]12CC[C@@]3(C[C@@H]1[C@@](C)(O)C(C)(C)C)[C@H]1Cc4cc(Br)c(O)c5c4[C@@]3(CCN1CC1CC1)[C@H]2O5 | OPRL1 | radioligand binding | CHO | together with: [3H]N/OFQ |  | Ki | 0.159 ± 0.0014 µM
CCc1nc(N)nc(N)c1C#CCc1cc(OC)cc(-c2ccc(C(=O)O)cc2)c1 | Riboflavin biosynthesis protein RibD (Mycobacterium tuberculosis, UniProt P71968) | inhibitor |  | together with: NADPH 50 µM |  | Ki | 1.17 ± 0.14 µM
CC[C@@](O)(c1ccccc1)[C@H]1C[C@@]23CC[C@]1(OC)[C@@H]1Oc4c(O)ccc5c4[C@@]12CCN(CC1CC1)[C@@H]3C5 | OPRL1 | binding, radioligand displacement | CHO | together with: [3H]N/OFQ |  | Ki | 0.396 ± 0.041 µM
CC#C/C(=N\OC[C@H]1COCCN1)c1ccc2ncnc(Nc3ccc(OCc4cccc(F)c4)c(Cl)c3)c2c1 | Glycogen synthase kinase-3 beta (GSK3B, Homo sapiens, UniProt P49841) | kinase activity |  | 10 µM |  | inhibition | 25.6%
COC(=O)[C@@H]1C[C@H](OC(C)=O)C(=O)[C@H]2[C@@]1(C)CC[C@H]1C(=O)O[C@H](c3ccoc3)C[C@]21C | Delta-type opioid receptor (Oprd1, Mus musculus, UniProt P32300) | radioligand binding | CHO membranes | together with: [3H]diprenorphine |  | Ki | > 1 µM
CO[C@]12CC[C@@]3(C[C@@H]1[C@](C)(O)CC(C)(C)c1ccccc1)[C@H]1Cc4ccc(O)c5c4[C@@]3(CCN1CC1CC1)[C@H]2O5 | OPRL1 | radioligand binding | CHO | together with: [3H]N/OFQ |  | Ki | 0.022 ± 0.00055 µM
O=[As](O)(O)O | Dual specificity protein phosphatase 23 (Homo sapiens, UniProt Q9BVJ7) | competitive inhibitor |  | pH 5.5, together with: pNPP |  | Ki | 130 ± 40 µM
CO[C@]12C=C[C@@]3(C[C@@H]1[C@@H](O)c1ccccc1)[C@H]1Cc4ccc(O)c5c4[C@@]3(CCN1CC1CC1)[C@H]2O5 | Mu-type opioid receptor (Cavia porcellus, UniProt A0ACM8Q262) | binding, radioligand displacement | guinea pig brain membranes | together with: [3H]DAMGO |  | Ki | 0.0008 ± 0.0005 µM
CO[C@]12CC[C@@]3(C[C@@H]1[C@@](C)(O)C(C)(C)C)[C@H]1Cc4c(Br)cc(O)c5c4[C@@]3(CCN1CC1CC1)[C@H]2O5 | OPRL1 | radioligand binding | CHO | together with: [3H]N/OFQ |  | Ki | 0.237 ± 0.064 µM
CC[C@](O)([C@H]1C[C@@]23C=C[C@]1(OC)[C@@H]1Oc4c(O)ccc5c4[C@@]12CCN(CC1CC1)[C@@H]3C5)C(C)(C)C | OPRL1 | binding, radioligand displacement | CHO | together with: [3H]N/OFQ |  | Ki | 0.187 ± 0.027 µM
CCC(C)(C)[C@](C)(O)[C@H]1C[C@@]23CC[C@]1(OC)[C@@H]1Oc4c(O)ccc5c4[C@@]12CCN(CC1CC1)[C@@H]3C5 | OPRL1 | radioligand binding | CHO | together with: [3H]N/OFQ |  | Ki | 0.0085 µM
CC[C@H](C)[C@H](NC(=O)[C@H](Cc1ccc(O)cc1)NC(=O)[C@H](CCC(N)=O)NC(=O)[C@@H](N)CCC(=O)O)C(=O)N[C@@H](CCCCN)C(=O)N[C@@H](Cc1c[nH]c2ccccc12)C(=O)N1CCC[C@H]1C(=O)N[C@@H](Cc1c[nH]c2ccccc12)C(=O)N[C@@H](Cc1ccc(O)cc1)C(=O)N[C@H](C(=O)N[C@@H](Cc1c[nH]c2ccccc12)C(=O)N[C@@H](CC(C)C)C(=O)O)C(C)C | FPR1 N192K | binding, competition binding |  | 4 °C, together with: formyl-Nle-Leu-Phe-Nle-Tyr-Lys-FITC 0.3 nM |  | Ki | 2.4 ± 0.17 µM
CO[C@]12CC[C@@]3(C[C@@H]1[C@](C)(O)CC(C)(C)C)[C@H]1Cc4ccc(O)c5c4[C@@]3(CCN1CC1CC1)[C@H]2O5 | OPRM1 | radioligand binding | CHO | together with: [3H]DAMGO |  | Ki | 0.00295 ± 0.00065 µM
dimethyl sulfoxide | Acetylcholinesterase (ACHE, Homo sapiens, UniProt P22303) | Ellman |  | pH 7.4, 22 °C, together with: acetylthiocholine |  | Ki | 45000 ± 5000 µM
Nc1c2c(nc3ccccc13)CCCC2 | Butyrylcholinesterase (Sus scrofa, UniProt A0A4X1VEU5) | enzyme activity, inhibitor |  |  |  | Ki | 0.00043 ± 7e-05 µM
CO[C@]12CC[C@@]3(C[C@@H]1[C@@](C)(O)c1ccncc1)[C@H]1Cc4ccc(O)c5c4[C@@]3(CCN1CC1CC1)[C@H]2O5 | Delta-type opioid receptor (Oprd1, Rattus norvegicus, UniProt P33533) | binding, radioligand displacement | C6 rat glioma | together with: [3H]diprenorphine |  | Ki | 0.00099 ± 0.00043 µM
O=c1cc(CNCCCOc2cccnc2)[nH]c2ccc(F)cc12 | D(4) dopamine receptor (DRD4, Homo sapiens, UniProt P21917) | radioligand competition |  | together with: [3H]N-methylspiperone |  | Ki | 0.03 µM

For quick reference, copied from above:
Molecule | target | test | test system | conditions | how to read | measurement | result
CO[C@]12CC[C@@]3(C[C@@H]1[C@@](C)(O)C(C)(C)C)[C@H]1Cc4cc(Br)c(O)c5c4[C@@]3(CCN1CC1CC1)[C@H]2O5 | OPRL1 | radioligand binding | CHO | together with: [3H]N/OFQ |  | Ki | 0.159 ± 0.0014 µM
CCc1nc(N)nc(N)c1C#CCc1cc(OC)cc(-c2ccc(C(=O)O)cc2)c1 | Riboflavin biosynthesis protein RibD (Mycobacterium tuberculosis, UniProt P71968) | inhibitor |  | together with: NADPH 50 µM |  | Ki | 1.17 ± 0.14 µM
